# Assay results from different studies.
# Numbered parts are unrelated; each lists some results of a single study. Values joined by “and” are separate records of one study, mostly repeats; a detail may differ.
# Sequence of UniProt P08581 (whole entry, looked up): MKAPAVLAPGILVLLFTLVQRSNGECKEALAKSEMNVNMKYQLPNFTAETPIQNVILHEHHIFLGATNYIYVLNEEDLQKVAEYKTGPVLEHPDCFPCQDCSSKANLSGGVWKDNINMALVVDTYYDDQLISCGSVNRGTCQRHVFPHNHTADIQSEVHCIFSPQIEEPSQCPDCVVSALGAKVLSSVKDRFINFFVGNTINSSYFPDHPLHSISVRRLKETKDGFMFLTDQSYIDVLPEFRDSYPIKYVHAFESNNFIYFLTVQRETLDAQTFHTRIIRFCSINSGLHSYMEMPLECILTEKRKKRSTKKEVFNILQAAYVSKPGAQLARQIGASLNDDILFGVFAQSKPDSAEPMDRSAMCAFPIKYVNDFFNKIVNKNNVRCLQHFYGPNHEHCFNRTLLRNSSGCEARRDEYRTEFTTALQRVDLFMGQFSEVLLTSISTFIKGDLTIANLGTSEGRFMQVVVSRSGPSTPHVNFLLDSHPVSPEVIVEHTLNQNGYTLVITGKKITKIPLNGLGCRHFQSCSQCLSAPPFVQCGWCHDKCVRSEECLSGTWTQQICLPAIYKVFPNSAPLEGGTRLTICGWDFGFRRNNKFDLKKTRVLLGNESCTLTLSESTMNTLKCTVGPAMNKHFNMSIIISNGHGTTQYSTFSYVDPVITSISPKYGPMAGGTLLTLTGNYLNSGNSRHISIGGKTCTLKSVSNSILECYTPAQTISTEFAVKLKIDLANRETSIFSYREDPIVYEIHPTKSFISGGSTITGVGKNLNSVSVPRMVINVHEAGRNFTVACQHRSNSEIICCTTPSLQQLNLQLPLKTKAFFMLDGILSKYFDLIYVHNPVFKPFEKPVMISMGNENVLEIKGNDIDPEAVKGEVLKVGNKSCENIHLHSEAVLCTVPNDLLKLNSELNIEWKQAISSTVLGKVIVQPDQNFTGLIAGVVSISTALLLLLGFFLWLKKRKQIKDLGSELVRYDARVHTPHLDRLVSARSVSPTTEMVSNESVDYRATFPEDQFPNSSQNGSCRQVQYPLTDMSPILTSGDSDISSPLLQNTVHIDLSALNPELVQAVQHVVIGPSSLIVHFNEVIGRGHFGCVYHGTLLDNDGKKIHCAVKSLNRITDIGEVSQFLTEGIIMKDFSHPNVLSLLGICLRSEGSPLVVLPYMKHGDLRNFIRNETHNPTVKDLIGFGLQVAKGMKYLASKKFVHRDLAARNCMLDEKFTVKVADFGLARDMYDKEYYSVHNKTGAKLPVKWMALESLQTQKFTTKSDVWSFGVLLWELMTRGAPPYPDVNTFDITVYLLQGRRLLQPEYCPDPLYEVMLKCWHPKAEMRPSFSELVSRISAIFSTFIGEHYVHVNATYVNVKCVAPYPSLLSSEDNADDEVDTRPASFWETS
# Sequence of UniProt Q02750 (whole entry, looked up): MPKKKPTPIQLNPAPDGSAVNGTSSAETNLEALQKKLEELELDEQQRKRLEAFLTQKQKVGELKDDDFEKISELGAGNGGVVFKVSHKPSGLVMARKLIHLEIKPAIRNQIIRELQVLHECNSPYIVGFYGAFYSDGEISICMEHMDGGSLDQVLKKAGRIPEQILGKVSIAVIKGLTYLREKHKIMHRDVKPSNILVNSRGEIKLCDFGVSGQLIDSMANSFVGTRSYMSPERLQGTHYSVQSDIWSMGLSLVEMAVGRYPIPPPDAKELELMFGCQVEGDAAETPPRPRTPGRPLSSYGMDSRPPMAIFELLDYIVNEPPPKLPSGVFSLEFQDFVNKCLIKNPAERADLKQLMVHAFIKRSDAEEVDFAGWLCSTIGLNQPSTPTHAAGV
# Sequence of UniProt Q96L34 (whole entry, looked up): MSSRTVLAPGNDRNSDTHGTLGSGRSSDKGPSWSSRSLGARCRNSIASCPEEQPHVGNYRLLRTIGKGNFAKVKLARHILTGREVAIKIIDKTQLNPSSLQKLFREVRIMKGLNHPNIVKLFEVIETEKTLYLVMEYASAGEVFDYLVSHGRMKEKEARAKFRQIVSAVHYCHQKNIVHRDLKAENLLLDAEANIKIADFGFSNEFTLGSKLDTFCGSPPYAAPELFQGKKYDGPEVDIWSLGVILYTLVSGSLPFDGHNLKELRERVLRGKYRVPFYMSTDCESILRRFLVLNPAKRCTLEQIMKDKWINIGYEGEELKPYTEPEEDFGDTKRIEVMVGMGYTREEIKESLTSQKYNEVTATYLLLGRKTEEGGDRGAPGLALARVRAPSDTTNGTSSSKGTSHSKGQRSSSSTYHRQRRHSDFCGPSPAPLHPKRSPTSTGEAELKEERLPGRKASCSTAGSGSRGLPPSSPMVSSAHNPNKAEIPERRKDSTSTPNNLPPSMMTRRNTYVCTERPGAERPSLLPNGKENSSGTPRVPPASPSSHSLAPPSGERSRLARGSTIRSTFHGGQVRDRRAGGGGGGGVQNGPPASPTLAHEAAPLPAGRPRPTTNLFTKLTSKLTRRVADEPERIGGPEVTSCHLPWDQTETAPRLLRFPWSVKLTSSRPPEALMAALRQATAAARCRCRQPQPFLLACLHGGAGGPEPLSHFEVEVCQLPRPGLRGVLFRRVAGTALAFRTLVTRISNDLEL
# Sequence of UniProt Q8N4C8 (whole entry, looked up): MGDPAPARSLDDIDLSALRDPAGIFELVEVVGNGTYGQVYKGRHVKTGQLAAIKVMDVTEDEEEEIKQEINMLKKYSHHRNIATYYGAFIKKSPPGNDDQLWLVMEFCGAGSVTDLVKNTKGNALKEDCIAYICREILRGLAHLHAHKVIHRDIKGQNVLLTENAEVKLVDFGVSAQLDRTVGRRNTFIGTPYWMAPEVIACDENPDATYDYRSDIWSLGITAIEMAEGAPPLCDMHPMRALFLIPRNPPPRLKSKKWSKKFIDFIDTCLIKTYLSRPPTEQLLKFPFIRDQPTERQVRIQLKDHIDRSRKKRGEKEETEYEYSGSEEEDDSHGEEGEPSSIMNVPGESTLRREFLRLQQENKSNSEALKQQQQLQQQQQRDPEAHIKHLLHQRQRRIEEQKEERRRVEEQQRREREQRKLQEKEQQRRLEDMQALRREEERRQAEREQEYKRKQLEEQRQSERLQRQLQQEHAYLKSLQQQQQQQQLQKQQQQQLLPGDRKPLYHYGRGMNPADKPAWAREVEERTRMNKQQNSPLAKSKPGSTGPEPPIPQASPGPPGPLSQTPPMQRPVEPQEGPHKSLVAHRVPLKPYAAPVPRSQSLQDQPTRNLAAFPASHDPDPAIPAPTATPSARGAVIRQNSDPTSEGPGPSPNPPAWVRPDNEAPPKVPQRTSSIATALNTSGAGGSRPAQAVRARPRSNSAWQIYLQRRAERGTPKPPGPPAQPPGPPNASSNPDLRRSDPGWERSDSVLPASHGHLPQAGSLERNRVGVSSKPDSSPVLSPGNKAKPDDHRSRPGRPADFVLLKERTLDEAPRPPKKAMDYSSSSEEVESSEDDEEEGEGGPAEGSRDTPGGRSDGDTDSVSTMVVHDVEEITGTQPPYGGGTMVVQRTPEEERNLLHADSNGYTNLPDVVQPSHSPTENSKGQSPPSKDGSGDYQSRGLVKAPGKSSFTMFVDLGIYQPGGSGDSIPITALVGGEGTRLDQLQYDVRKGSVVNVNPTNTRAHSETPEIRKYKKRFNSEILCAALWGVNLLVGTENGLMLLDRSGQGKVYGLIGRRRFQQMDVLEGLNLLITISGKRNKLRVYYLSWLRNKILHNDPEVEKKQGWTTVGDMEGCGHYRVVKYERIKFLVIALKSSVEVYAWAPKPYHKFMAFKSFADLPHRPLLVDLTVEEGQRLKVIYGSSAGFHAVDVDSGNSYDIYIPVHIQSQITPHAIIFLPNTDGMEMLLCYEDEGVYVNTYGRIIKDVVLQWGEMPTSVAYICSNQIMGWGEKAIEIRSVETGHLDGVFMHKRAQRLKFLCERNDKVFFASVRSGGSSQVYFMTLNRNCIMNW
# Sequence of UniProt Q13237 (whole entry, looked up): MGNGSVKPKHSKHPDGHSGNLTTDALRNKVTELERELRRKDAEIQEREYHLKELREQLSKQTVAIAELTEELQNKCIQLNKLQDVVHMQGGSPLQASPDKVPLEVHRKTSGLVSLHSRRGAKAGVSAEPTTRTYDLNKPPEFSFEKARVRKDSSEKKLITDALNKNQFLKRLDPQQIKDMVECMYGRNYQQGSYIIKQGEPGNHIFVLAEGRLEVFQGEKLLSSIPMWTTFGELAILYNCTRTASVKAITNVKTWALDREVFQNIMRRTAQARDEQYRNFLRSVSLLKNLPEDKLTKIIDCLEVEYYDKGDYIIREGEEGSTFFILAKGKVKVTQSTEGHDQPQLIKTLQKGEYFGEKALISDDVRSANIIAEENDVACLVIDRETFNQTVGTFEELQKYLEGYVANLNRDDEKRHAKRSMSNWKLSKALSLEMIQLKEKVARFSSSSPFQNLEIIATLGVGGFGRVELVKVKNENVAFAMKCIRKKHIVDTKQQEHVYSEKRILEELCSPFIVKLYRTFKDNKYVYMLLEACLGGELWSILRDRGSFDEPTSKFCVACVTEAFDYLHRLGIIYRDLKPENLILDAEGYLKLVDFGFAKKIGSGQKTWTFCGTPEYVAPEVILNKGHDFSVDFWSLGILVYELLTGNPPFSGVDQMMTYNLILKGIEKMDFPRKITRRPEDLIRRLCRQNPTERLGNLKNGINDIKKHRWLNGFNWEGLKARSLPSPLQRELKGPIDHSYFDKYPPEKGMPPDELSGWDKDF
# Sequence of UniProt Q16539 (whole entry, looked up): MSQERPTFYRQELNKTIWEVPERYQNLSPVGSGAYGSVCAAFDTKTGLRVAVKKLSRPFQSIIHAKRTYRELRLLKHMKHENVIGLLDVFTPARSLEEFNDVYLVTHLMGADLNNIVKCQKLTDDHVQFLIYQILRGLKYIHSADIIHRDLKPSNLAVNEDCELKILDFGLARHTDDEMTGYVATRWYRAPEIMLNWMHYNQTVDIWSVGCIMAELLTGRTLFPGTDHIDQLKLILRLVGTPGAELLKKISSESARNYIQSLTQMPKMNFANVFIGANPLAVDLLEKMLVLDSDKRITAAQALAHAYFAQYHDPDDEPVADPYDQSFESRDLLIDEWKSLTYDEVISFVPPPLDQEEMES

# Set 1
# Target: Bromodomain-containing protein 4, BD1 (BRD4, Homo sapiens, UniProt O60885)
# Observed: acetyl-histone H4 peptide binding
# Method: AlphaScreen displacement
# Tested at: 50 µM
Structure (SMILES),inhibition [%]
COc1ccc(Cl)cc1NC(=O)Nc1cc(C)nc2ccccc12,1.95
COc1ccc(-c2nnc(SCC(=O)Nc3ccc(F)cc3F)n2-n2cccc2)cc1,6.7
COc1ccccc1NC(=O)N=c1[nH]nc(C=Cc2ccccc2)s1,26.7
O=C1NC(=O)C(=Cc2ccc(-c3ccc(F)cc3)o2)S1,0.75
COc1ccc(C(=O)Nc2sc3c(c2C(N)=O)CCCC3)cc1OC,7
COc1cc2ncnc(Nc3ccc(NC(=O)c4ccccc4)cc3)c2cc1OC,12.8
COc1ccc(CNC(=O)Nc2ncc([N+](=O)[O-])s2)cc1,6.15
CC(C)c1cc(/C=C(\C#N)C(=O)NCCCc2ccccc2)cc(C(C)C)c1O,13.1
Cc1cc2nc(C(C#N)=Cc3ccncc3)[nH]c2cc1C,25.6
COc1ccc(CCNc2nc(N)nc3[nH]cnc23)cc1OC,54.2

# Set 2
# Structure (SMILES): Cc1cc(Nc2nc(-c3ccccc3)nc3ccccc23)n[nH]1
# Observed: enzyme activity
# Mode: inhibitor
# Tested at: 0.5 µM
# Baseline: control
target,remaining activity
"Rho-associated protein kinase 1 (ROCK1, Homo sapiens, UniProt Q13464)",98.8%
"Calcium/calmodulin-dependent protein kinase type IV (CAMK4, Homo sapiens, UniProt Q16566)",94.1%
"cGMP-dependent protein kinase 2 (PRKG2, Homo sapiens, UniProt Q13237)",98.2%
"Dual specificity mitogen-activated protein kinase kinase 1 (MAP2K1, Homo sapiens, UniProt Q02750)",91.6%
"Serine/threonine-protein kinase PAK 3 (PAK3, Homo sapiens, UniProt O75914)",90.2%
"Mitogen-activated protein kinase 14 (MAPK14, Homo sapiens, UniProt Q16539)",103%
"Vascular endothelial growth factor receptor 2 (KDR, Homo sapiens, UniProt P35968)",36.5%
"Serine/threonine-protein kinase MRCK beta (CDC42BPB, Homo sapiens, UniProt Q9Y5S2)",87.1%
"Serine/threonine-protein kinase DCLK2 (DCLK2, Homo sapiens, UniProt Q8N568)",87.4%
"Discoidin domain-containing receptor 2 (DDR2, Homo sapiens, UniProt Q16832)",93.2%
"MAP/microtubule affinity-regulating kinase 4 (MARK4, Homo sapiens, UniProt Q96L34)",83.5%
"Hepatocyte growth factor receptor (MET, Homo sapiens, UniProt P08581)",130%
"Misshapen-like kinase 1 (MINK1, Homo sapiens, UniProt Q8N4C8)",35.6%
"Ribosomal protein S6 kinase alpha-4 (RPS6KA4, Homo sapiens, UniProt O75676)",108%

# Set 3
# Cell line: mouse MPNST tumor cells
# Method: high-content nuclear imaging
# Item: cell number
# Tested at: 10 µM
# Time: 12 h
# Notes: mean of 2 replicates
# Baseline: plate mean
# Reading: higher = more cells
SMILES,nuclei count
CCCCCCN(CCCCCC)C(=O)Cc1c(-c2ccc(F)cc2)[nH]c2ccccc12,0.915 z-score
C=CC1=C(C(=O)O)N2C(=O)[C@@H](NC(=O)/C(=N\O)c3csc(N)n3)[C@H]2SC1,0.868 z-score
O=C(NCC(=O)N1CCCC1)Nc1ccc2cnccc2c1,-0.786 z-score and 0.521 z-score
CCN(CC)CC(=O)Nc1c(C)cccc1C,2.16 z-score
CCCCC1(COC(=O)CCC(=O)O)C(=O)N(c2ccccc2)N(c2ccccc2)C1=O,0.363 z-score
C[C@H](N)COC(=O)[C@H](CCCCN)NC(=O)Cc1c(-c2ccc3ccccc3c2)[nH]c2c1ccc1ccccc12,1.28 z-score
Nc1nc(NCCc2ccc(O)cc2)nc2nc(-c3ccco3)nn12,2.9 z-score
CCN1CCC[C@H]1CNC(=O)c1c(OC)ccc(Br)c1OC,1.99 z-score
CCCCc1nn(-c2ccccc2C(F)(F)F)c(=O)n1Cc1ccc(-c2ccccc2S(=O)(=O)NC(=O)c2sccc2C)cc1,0.557 z-score
CCC(CC)(CC(=O)Nc1cccc(/C=C/c2nc(C3CCC3)cs2)c1)C(=O)O,-0.616 z-score

# Set 4
# Species: mouse
# Medium: microsomes or S9
# Tested at: 2 µM
# Time: 0.5 h
SMILES,remaining compound
COc1cccc(N2CCN(c3ncnc4[nH]cnc34)CC2)c1,57.3%
CCOc1cc(=O)n2c(c1C(=O)Nc1cc(OC)c(Cl)cc1OC)CCCC2,94.7%
CCC12OCC(C)(C)N1O/C(=N/c1ccccc1)N2c1ccccc1 (centres unmarked),0.33%
CCOc1cc(CNCCO)cc(Br)c1OC(C)C,0%
Oc1cc(F)cc(CNC2CCCN(c3cc(N4CCOCC4)ncn3)C2)c1 (centres unmarked),3.84%
Cc1nc2cc(NC(=O)c3cccc4cn[nH]c34)ccc2o1,0.57%
CC(=O)c1ccc(Nc2nc3ccc(C)cc3n3cnnc23)cc1,59.5%
CCC(C)n1c(=O)c2sccc2n2c(CCCC(=O)N3CCc4ccccc4C3)nnc12 (centres unmarked),0.872%
O=C(Nc1cccnc1Cl)NC1CCc2[nH]cnc2C1 (centres unmarked),82.9%
COC(=O)c1cccc(NC(=O)N2Cc3c(sc4c3CCCC4)-n3cccc3C2C(C)C)c1 (centres unmarked),10%

# Some of these lines once more (set 2):
target,remaining activity
"Serine/threonine-protein kinase PAK 3 (PAK3, Homo sapiens, UniProt O75914)",90.2%
"Mitogen-activated protein kinase 14 (MAPK14, Homo sapiens, UniProt Q16539)",103%
"Vascular endothelial growth factor receptor 2 (KDR, Homo sapiens, UniProt P35968)",36.5%
"Serine/threonine-protein kinase MRCK beta (CDC42BPB, Homo sapiens, UniProt Q9Y5S2)",87.1%
"Serine/threonine-protein kinase DCLK2 (DCLK2, Homo sapiens, UniProt Q8N568)",87.4%
"Discoidin domain-containing receptor 2 (DDR2, Homo sapiens, UniProt Q16832)",93.2%
"MAP/microtubule affinity-regulating kinase 4 (MARK4, Homo sapiens, UniProt Q96L34)",83.5%
